Assay results of several laboratories.
Compare with care: the assays were run in different laboratories. Numbers after ± are the reported error.
KCNMA1 with beta-3 subunit: Calcium-activated potassium channel subunit alpha-1, with beta-3 subunit (KCNMA1, Homo sapiens, UniProt Q12791)
UniProt Q12791, sequence (whole entry, looked up): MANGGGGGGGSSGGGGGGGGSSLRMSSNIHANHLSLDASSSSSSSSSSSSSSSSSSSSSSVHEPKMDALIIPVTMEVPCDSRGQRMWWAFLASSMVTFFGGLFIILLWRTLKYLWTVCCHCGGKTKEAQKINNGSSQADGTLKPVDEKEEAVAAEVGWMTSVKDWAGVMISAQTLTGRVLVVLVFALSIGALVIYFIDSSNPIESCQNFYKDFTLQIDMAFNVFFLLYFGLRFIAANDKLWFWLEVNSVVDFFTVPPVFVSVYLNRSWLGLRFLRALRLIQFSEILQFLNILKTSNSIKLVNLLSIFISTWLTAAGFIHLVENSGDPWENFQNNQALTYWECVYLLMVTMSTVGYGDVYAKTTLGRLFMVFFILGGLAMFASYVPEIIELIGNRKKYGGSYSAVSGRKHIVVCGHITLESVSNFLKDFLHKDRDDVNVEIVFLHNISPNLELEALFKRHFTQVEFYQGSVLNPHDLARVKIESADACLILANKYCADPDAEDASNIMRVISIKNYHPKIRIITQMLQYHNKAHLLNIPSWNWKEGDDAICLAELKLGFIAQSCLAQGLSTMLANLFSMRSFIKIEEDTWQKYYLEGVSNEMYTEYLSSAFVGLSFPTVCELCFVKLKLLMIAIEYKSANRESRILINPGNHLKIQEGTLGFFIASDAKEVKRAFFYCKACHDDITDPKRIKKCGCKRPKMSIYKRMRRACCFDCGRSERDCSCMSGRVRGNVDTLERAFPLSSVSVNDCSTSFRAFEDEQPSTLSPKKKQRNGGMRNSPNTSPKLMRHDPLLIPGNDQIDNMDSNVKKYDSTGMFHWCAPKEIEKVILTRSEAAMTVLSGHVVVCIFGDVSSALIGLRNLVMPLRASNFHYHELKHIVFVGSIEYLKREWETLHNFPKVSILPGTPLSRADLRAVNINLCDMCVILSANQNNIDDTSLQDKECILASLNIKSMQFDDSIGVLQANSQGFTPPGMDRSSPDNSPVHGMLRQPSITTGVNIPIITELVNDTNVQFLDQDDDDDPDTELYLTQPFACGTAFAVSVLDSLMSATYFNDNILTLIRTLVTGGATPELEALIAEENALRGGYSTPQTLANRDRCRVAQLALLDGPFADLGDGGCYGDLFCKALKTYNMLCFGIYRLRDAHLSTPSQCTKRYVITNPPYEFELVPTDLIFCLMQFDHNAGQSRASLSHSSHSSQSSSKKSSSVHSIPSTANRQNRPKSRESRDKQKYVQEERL
Ryanodine receptor 1: Ryanodine receptor 1 (Oncorhynchus mykiss, UniProt A0A8C7UX14)
UniProt P18508, sequence (whole entry, unmodified, looked up): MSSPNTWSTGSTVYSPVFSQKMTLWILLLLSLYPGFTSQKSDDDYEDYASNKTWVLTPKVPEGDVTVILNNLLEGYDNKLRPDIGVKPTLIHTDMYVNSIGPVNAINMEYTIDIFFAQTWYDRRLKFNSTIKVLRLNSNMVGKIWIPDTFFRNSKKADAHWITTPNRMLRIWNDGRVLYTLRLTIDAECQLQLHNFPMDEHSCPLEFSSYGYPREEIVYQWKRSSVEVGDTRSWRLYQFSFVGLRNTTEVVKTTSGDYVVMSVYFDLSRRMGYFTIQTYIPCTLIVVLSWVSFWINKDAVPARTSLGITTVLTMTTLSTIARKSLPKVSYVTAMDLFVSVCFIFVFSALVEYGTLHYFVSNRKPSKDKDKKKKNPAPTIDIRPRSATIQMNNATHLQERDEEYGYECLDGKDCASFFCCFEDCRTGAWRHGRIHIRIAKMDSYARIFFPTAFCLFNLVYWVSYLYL
UniProt P47870, sequence (whole entry, unmodified, looked up): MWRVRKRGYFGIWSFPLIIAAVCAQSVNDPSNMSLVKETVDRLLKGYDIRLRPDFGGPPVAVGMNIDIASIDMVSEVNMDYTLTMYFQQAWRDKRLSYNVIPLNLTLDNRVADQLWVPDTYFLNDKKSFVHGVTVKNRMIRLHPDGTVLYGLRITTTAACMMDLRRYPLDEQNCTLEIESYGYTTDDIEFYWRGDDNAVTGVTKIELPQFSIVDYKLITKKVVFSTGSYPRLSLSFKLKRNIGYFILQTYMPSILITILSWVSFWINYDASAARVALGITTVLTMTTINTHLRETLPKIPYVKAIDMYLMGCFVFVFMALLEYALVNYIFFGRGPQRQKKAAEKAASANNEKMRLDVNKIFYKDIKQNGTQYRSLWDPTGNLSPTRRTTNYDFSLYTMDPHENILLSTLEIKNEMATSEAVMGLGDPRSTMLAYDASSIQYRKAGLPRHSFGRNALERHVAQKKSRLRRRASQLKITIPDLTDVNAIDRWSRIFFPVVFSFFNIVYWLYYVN
UniProt P43681, sequence (whole entry, looked up): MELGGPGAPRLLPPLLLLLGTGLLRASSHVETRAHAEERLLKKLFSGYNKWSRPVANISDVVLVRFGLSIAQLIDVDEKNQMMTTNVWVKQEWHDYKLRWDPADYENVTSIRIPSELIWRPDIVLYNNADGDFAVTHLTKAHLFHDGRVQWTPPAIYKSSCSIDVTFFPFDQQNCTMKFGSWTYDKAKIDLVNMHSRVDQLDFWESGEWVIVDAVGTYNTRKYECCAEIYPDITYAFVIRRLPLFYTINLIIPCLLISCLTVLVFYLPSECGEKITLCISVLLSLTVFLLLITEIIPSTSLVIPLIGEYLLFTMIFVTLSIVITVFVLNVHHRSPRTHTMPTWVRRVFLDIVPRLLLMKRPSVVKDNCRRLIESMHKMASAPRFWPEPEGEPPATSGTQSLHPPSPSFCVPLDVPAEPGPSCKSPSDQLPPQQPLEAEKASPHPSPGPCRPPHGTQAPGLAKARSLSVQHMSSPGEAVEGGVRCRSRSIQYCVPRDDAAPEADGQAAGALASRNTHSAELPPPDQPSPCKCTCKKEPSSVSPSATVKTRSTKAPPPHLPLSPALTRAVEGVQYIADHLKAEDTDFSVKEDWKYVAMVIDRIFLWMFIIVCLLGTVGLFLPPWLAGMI
UniProt P17787, sequence (whole entry, looked up): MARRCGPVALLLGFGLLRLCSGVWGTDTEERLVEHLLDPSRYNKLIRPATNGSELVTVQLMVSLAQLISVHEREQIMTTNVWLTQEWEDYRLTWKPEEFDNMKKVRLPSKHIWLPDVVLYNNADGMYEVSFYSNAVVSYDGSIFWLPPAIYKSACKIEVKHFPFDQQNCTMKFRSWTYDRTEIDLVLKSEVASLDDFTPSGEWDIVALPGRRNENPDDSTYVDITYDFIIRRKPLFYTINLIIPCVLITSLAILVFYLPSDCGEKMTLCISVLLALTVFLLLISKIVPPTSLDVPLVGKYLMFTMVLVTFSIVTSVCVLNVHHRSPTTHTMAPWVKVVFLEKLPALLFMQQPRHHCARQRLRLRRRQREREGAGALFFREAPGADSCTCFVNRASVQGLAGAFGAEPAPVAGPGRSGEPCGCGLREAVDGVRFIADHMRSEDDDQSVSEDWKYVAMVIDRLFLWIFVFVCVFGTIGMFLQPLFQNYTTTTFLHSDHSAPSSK
UniProt P62813, sequence (whole entry, unmodified, looked up): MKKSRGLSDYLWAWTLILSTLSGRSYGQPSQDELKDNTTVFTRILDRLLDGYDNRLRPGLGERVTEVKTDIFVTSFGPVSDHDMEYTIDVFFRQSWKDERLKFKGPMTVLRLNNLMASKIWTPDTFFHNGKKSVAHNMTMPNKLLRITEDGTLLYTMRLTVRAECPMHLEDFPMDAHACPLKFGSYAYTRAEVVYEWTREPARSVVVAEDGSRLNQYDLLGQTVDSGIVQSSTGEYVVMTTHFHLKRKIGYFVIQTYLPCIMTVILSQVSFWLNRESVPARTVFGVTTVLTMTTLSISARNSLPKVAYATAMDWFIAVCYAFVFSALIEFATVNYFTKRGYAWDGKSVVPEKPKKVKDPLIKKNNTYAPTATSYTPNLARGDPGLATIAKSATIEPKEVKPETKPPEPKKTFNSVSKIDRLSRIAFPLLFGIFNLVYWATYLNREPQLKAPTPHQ
UniProt P41143, sequence (whole entry, looked up): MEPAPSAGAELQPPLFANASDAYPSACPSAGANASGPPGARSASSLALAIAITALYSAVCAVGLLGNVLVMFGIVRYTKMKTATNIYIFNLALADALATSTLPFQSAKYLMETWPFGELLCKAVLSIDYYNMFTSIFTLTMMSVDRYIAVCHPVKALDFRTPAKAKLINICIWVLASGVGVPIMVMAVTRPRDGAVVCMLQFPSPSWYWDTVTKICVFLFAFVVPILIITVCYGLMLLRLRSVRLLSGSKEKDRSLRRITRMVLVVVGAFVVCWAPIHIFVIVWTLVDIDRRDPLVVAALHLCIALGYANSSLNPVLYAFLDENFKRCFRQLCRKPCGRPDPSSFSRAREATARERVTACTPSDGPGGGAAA
UniProt O08914, sequence (whole entry, looked up): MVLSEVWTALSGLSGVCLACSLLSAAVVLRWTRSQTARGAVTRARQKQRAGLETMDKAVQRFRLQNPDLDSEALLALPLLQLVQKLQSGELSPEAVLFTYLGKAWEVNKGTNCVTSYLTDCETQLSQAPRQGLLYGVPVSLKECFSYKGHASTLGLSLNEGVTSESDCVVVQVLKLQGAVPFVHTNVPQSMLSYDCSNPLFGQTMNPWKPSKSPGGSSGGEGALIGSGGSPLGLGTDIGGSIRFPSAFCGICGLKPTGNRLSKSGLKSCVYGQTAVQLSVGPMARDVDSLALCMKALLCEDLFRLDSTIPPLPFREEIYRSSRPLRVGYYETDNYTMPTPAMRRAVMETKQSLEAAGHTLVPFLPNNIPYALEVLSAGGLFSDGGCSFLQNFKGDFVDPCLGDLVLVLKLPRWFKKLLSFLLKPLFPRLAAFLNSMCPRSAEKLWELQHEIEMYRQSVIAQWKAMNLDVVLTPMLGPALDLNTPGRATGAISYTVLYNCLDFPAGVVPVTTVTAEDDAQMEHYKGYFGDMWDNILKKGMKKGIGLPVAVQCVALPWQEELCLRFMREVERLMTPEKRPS
UniProt Q8NKB0, sequence (whole entry, unmodified, looked up): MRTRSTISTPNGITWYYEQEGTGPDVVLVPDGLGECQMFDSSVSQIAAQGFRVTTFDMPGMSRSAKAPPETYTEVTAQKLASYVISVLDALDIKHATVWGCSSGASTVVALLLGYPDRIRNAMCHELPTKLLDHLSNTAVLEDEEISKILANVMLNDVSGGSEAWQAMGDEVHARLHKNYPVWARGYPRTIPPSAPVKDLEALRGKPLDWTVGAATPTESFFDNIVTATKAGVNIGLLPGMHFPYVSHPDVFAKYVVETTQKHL

With `anthraquinone-neomycin` the binding enthalpy was -12.7 ± 0.2 kcal/mol (poly(dA)•2poly(dT) triplex DNA; isothermal titration calorimetry; concentration not given, pH 6.8, 20 °C, KCl 150 mM).
`CCCCCCC(C)(C)c1ccc([C@@H]2C[C@H](O)CC[C@H]2CCCO)c(O)c1` gave a maximal response of 108% (RORA (Homo sapiens, UniProt P35398); AlphaScreen; baseline: 25 µM 7α-hydroxycholesterol).
For `CCc1nn2c(=O)cc(N3CCNCC3)nc2s1`, the fibrinogen-binding platelets was 8 ± 3% (Integrin alpha-IIb/beta-3 (Homo sapiens, UniProt P05106+P08514); activator, measured: fluorescent fibrinogen binding; human platelets; 100 µM; baseline: no agent).
`N=C(N)NCCNC(=O)C1(Nc2ccccc2)CCN(Cc2ccccc2)CC1`: “highest concentration inactive” no more than 10 µM (NPFFR1 (Homo sapiens, UniProt Q9GZQ6); receptor activation, agonist).
For `O=S(=O)(O)Oc1cc(Cl)c(-c2cc(Cl)ccc2Cl)cc1Cl`, the Vmax was 7.6 ± 0.2 nmol/min/mg (sulfatase, human liver microsomes; substrate; pH 7.4, 37 °C).
`C/C=C1/CN2[C@H]3C[C@@H]1[C@@H](CO)[C@@H]2Cc1c3n(C)c2ccccc12` has an ED50 of greater than 20000 nM (RELA (Homo sapiens, UniProt Q04206); DNA binding, inhibitor, ELISA; HeLa nuclear extract).
Under “potency fold change”, `O=C(OCC1CCN(CCCc2ccccc2)CC1)c1ccccc1-c1ccccc1` is recorded as 1.4 (Neuronal acetylcholine receptor; alpha4/beta2 (Homo sapiens, UniProt P17787+P43681); concentration not given; baseline: amide analogue over parent scaffold).
`O=S(=O)(c1ccccc1OCC(F)(F)F)N1CC(c2nc(-c3ccc(F)cc3)no2)C1` — result for activity: “inactive” (KCNMA1 with beta-3 subunit; HEK293; 30 µM).
For `CN(C(=O)n1cnc(-c2ccc[n+]([O-])c2)c1)C1CCCCC1`, the remaining activity was 41.8% (Faah (Mus musculus, UniProt O08914); enzyme activity, ex vivo; mouse, brain; oral, 0.1 mg/kg, 48 h; baseline: vehicle).
With `TVNKTES (O-β-GlcNAc)` the translocation was 40 to 50% (Antigen peptide transporter 1/Antigen peptide transporter 2 (Homo sapiens, UniProt Q03518+Q03519); substrate; peptide, streptolysin O-permeabilised LCL721 cells; concentration not given; baseline: control peptide).
`CC(C)c1ccc(NC(=O)Oc2ccc3c(c2)[C@]2(C)CCN[C@@H]2N3)cc1` — result for “decarbamoylation rate constant k3”: 0.501 ± 0.006 h⁻¹ (Cholinesterase (BCHE, Homo sapiens, UniProt P06276); inhibitor, immobilized enzyme reactor, HPLC-UV; immobilized recombinant human enzyme; 30 °C, after near-complete inhibition).
`CC(C)(C)OC(=O)c1ncn2c1[C@@H]1CCCN1C(=O)c1c(Br)cccc1-2` has an Emax of 395 ± 8% (Gabrg2/Gabra4, with β3 subunit (Rattus norvegicus, UniProt P18508+P28471); GABA-induced chloride current, two-electrode voltage clamp; Xenopus oocytes; rat α4β3γ2 receptor, added: GABA EC3; baseline: GABA EC3 alone).
With `Clc1cc(Cl)c(-c2c(Cl)cc(Cl)c(Cl)c2Cl)cc1Cl` the Emax was 143% (Ryanodine receptor 1; [3H]ryanodine binding, activator; trout muscle microsomes; concentration not given; baseline: DMSO).
The Emax of `NC(=O)CN1CCC[C@H](NC(=O)c2nn(Cc3ccc(F)cc3)c3ccccc23)C1` is reported as 115 ± 6% (CNR1 (Homo sapiens, UniProt P21554); calcium mobilization, agonist; CHO-K1 expressing Gαq16; baseline: CP55,940 maximum).
For `CC(C)Oc1ccccc1S(=O)(=O)N1CC(c2nc(-c3ccsc3)no2)C1`, activity read “inactive” (KCNMA1 with beta-3 subunit; HEK293; 30 µM).
`CCCCSS(C)(=O)=O` — result for GABA current: “no effect” (Gabrg2/GABRB2/Gabra1 (Rattus norvegicus, UniProt P18508+P47870+P62813, C260A/C282A/C319A/C341A); covalent modifier, two-electrode voltage clamp; Xenopus laevis oocytes; 0.5 mM, labelled without GABA, added: GABA EC10; baseline: before labelling).
With `Cc1cc(=O)oc2c(F)c(OP(=O)(O)O)c(F)cc12` the Km was 1.25 ± 0.09 mM (PTPN11 (Homo sapiens, UniProt Q06124, S502P); phosphatase activity, substrate; 0.025 nM enzyme, pH 7.2, S502P mutant basal no peptide).
With `Clc1ccc(Cl)c(-c2c(Cl)ccc(Cl)c2Cl)c1Cl` the EC20 was 720 nM (Ryanodine receptor 1; [3H]ryanodine binding; rainbow trout, skeletal muscle microsomes).
For `Oc1ccc2c3c1O[C@H]1c4ncc(-c5ccc(Cl)cc5)cc4C[C@@]4(O)[C@@H](C2)N(CC2CC2)CC[C@]314`, “EC50 fold change” read 37 fold (Oprd1 (Rattus norvegicus, UniProt P33533); yohimbine-treated rats, midbrain membranes; intraperitoneal, 5 mg/kg; baseline: pretreated over untreated).
For `Trp-D-Phe-Asp-Lys-D-Phe-D-Asn-His-Dap`, “competitive binding inhibition” read “inhibited” (GTPase KRas (KRAS, Homo sapiens, UniProt P01116, G12V); fluorescence anisotropy; concentration not given, added: FITC-labelled same peptide).
With `KQTARKSTGGWW (octanoyl-Lys9)` the kcat/Km was 139 ± 13 M⁻¹ s⁻¹ (HDAC8 (Homo sapiens, UniProt Q9BY41); substrate, HPLC; peptide; 1 µM, 1 h, pH 8, 37 °C).
The kcat of `COC1=C(OC)C(=O)C(C)=CC1=O` is reported as 0.333 ± 0.005 s⁻¹ (Type II NADH dehydrogenase (Plasmodium falciparum, UniProt Q8I302); enzyme activity, substrate; added: co-substrate 500 µM).
Under “minimum DNA retardation concentration”, `CC[C@H](C)[C@H](NC(=O)[C@H](C)NC(=O)[C@H](CCC(=O)O)NC(C)=O)C(=O)N[C@H]1CCCC=CCCC[C@@H](C(=O)N[C@@H](CCC(N)=O)C(=O)N[C@@H](CC(C)C)C(=O)N[C@@H](CC(C)C)C(=O)N[C@@H](Cc2ccccc2)C(=O)N[C@H](C(=O)N[C@@H](Cc2c[nH]cn2)C(=O)N[C@@H](Cc2ccccc2)C(=O)N[C@@H](CCCNC(=N)N)C(=O)N[C@H](C(=O)NCC(=O)N[C@@H](CCCNC(=N)N)C(=O)N[C@@H](CCC(=O)O)C(=O)N[C@@H](CCCNC(=N)N)C(=O)N[C@@H](CCC(=O)O)C(=O)N[C@@H](CCCNC(=N)N)C(=O)N[C@@H](CCC(=O)O)C(=O)N[C@@H](CCCNC(=N)N)C(=O)N[C@@H](CCC(=O)O)C(N)=O)[C@@H](C)CC)[C@@H](C)CC)NC(=O)[C@H](CC(C)C)NC(=O)[C@H]([C@@H](C)CC)NC(=O)[C@H](CCCNC(=N)N)NC1=O` is recorded as 37 µM (HIV-1 integrase and DNA substrate; DNA binding, gel retardation; 2 h, 37 °C, added: radiolabelled oligonucleotide DNA).
The remaining binding of `O=C1Nc2ccccc2/C1=C1/Nc2ccccc2/C1=N\O` is reported as 50 to 95% (CRK2 (Plasmodium falciparum, UniProt P61075); KINOMEscan competition binding; 12 µM; baseline: DMSO control).
The retention factor of `COc1cc2c3c(c1OC)Oc1ccc(cc1)C[C@@H]1c4c(cc(OC)c(OC)c4Oc4ccc(cc4)C[C@H]3N(C)CC2)CCN1C` is reported as 8.37 (Heat shock protein HSP 90-alpha, C-terminal domain (HSP90AA1, Homo sapiens, UniProt P07900); binding, zonal affinity chromatography; pH 7.4, 25 °C).
`O=[P@]1(S)OC[C@H]2O[C@@H](n3cnc4cc(Cl)c(Cl)cc43)[C@H](O)[C@@H]2O1` gave a selectivity ratio of 2.1 (cAMP-dependent protein kinase type II-beta regulatory subunit, holoenzyme with catalytic subunit (Prkar2b, Rattus norvegicus, UniProt P12369, S112A); PKA holoenzyme activation, activator, fluorescence anisotropy; baseline: RIIβ over RIα, higher = RIIβ-selective).
For `copper-phenanthroline`, “GABA current change” read “no effect” (Gabrg2/GABRB2/Gabra1 (Rattus norvegicus, UniProt P18508+P47870+P62813, C260A/C282A/C312A/C319A/C341A); two-electrode voltage clamp; Xenopus oocytes; 100 µM with phenanthroline 200 µM, 2 min, after DTT, added: GABA EC50; baseline: initial response).
For `O=c1c(I)ccc2n1C[C@@H]1CNC[C@H]2C1`, “increase in binding sites” read 96.1 ± 12.1% (α4β2* nAChR, mouse; DBA/2J mice, hippocampus membranes; intravenous infusion, 0.2 mg/kg/h, 7 days; baseline: saline).
`C[N@@+]1([O-])CCC[C@H]1c1cccnc1` has a peak current of 44 ± 5% (Neuronal acetylcholine receptor; alpha4/beta2, (α4)3(β2)2 stoichiometry (Homo sapiens, UniProt P17787+P43681); ion current, two-electrode voltage clamp; Xenopus oocytes; 200 µM, added: ACh 1 µM; baseline: ACh alone).
Under “binding free energy”, `O=S(=O)(O)c1nc2ccccc2[nH]1` is recorded as -4.66 kcal/mol (racE (Bacillus subtilis, UniProt P94556, N75A); enzyme activity, inhibitor).
With `CC(C)[C@@H](CN1CCN(c2cccc(O)c2)[C@@H](C)C1)NC(=O)c1ccc(Oc2ccc(O)cc2)cc1` the Ke was 1700 ± 380 nM (OPRD1 (Homo sapiens, UniProt P41143); antagonist; CHO; added: DPDPE).
`CC1N=C(c2ccccc2F)c2cc(Nc3ccc([N+](=O)[O-])cc3)ccc2NC1=O` (stereo not shown) has an inhibition of 41% (ADRA2C (Homo sapiens, UniProt P18825); ligand displacement, radioligand; 10 µM).
With `C[C@H]1CCCC(=O)CCC/C=C/c2cc(O)cc(O)c2C(=O)O1` the Km was 33.9 ± 3.53 mM (zhd101 (Clonostachys rosea, UniProt Q8NKB0, E145K); substrate, HPLC; 10 min, pH 5.5, 37 °C, 1% acetonitrile).
`O=[N+]([O-])c1ccc(O[C@H]2O[C@H](CO)[C@H](O)[C@H](O)[C@H]2O)cc1`: “forward rate constant” 64 ± 5 s⁻¹ (lacY (Escherichia coli, UniProt P02920, I32C/N245C); cytoplasmic cavity opening; DDM; Cu2+ cross-linked).

For quick reference, copied from above:
`CC1N=C(c2ccccc2F)c2cc(Nc3ccc([N+](=O)[O-])cc3)ccc2NC1=O` (stereo not shown) has an inhibition of 41% (ADRA2C (Homo sapiens, UniProt P18825); ligand displacement, radioligand; 10 µM).
For `CN(C(=O)n1cnc(-c2ccc[n+]([O-])c2)c1)C1CCCCC1`, the remaining activity was 41.8% (Faah (Mus musculus, UniProt O08914); enzyme activity, ex vivo; mouse, brain; oral, 0.1 mg/kg, 48 h; baseline: vehicle).
`CC(C)c1ccc(NC(=O)Oc2ccc3c(c2)[C@]2(C)CCN[C@@H]2N3)cc1` — result for “decarbamoylation rate constant k3”: 0.501 ± 0.006 h⁻¹ (Cholinesterase (BCHE, Homo sapiens, UniProt P06276); inhibitor, immobilized enzyme reactor, HPLC-UV; immobilized recombinant human enzyme; 30 °C, after near-complete inhibition).
Under “binding free energy”, `O=S(=O)(O)c1nc2ccccc2[nH]1` is recorded as -4.66 kcal/mol (racE (Bacillus subtilis, UniProt P94556, N75A); enzyme activity, inhibitor).
